Published values from different studies.
Numbered parts are unrelated; each lists some results of a single study. Changes are numbered by the printed parent chain.

Study 1
Target: Myc proto-oncogene protein, bHLH-zipper, MAX partner unstated (MYC, Homo sapiens, UniProt P01106, residues 368-449)
UniProt P01106, sequence (368-449, looked up): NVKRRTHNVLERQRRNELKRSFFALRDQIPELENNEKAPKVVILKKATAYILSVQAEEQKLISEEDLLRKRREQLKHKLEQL
Method: protein-binding microarray
Molecule type: double-stranded DNA, one strand shown
Medium: in vitro
Tested at: not given
Setting: k-mer, scored over probes, only values ≥0.25
Reading: higher = stronger binding
Strand | E-score
ACGGCATG | 0.416
CAACGAGG | 0.341
ATGTGGCC | 0.394
CATTGCAC | 0.25
CCATGAGA | 0.277
CTGTCCAC | 0.297
CGCACACC | 0.306
CACATGCG | 0.468
ACGCACGC | 0.43
CAGACATG | 0.283
GCACGAGA | 0.331
GCGCGGCC | 0.252
ATGCTCCA | 0.281
AACAGGTG | 0.346
GGCATGCC | 0.38
CATGGGCA | 0.311
CCACGTTC | 0.362
CACGCGGC | 0.478
CACATGGA | 0.476
GCATGTAC | 0.387

Study 2
Target: ABI1, truncated, D143A, DHFR fusion (Arabidopsis thaliana)
Method: DHFR PCA, deep sequencing
Medium: yeast
Setting: methotrexate growth selection, single substitutions
Added: (+)-ABA 0.11 µM
Reference: wild-type fitted maximum
Reading: higher = stronger binding
Starting sequence: PYL1, truncated, DHFR fusion (Arabidopsis thaliana); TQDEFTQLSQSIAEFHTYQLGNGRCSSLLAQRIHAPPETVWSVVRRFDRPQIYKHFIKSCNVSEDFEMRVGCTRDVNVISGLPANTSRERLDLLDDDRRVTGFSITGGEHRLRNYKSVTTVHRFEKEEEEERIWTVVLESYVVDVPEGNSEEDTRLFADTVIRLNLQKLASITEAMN
Change | relative binding score [%]
A30W | 23.7
Q167M | 20.3
K58P | 24.1
D153V | -1.26
T101N | -3.44
T106Y | 8.48
T106S | 1.11
Y115T | -3.27
R45Q | -3.62
G21P | 13.9
G108P | -5.2
S59Y | 20.8
L29R | -2.28
V40L | -1.6
I105L | -8.47
D75A | 12.9
W41D | -4.45
I105G | -9
T1F | 27.2
I12R | 3.01
S63I | 9.26
Q19C | 15.9
S59P | -2.29
S80R | 2.9
C60R | 8.82

Study 3
Substance: PhoQ, residues 284 288 289 292 302 303 SCEHLI
Method: Sort-seq
Refers to: YFP reporter
Medium: E. coli
Setting: PhoQ-PhoP variant library
Added: 10 µM Mg2+
Reference: high Mg2+ state
Reading: higher = stronger signaling
target | fold induction
PhoP, residues 12 14 15 18 19 LHHYF (Escherichia coli, UniProt P23836) | 13.2
PhoP, residues 12 14 15 18 19 VGHWL (Escherichia coli, UniProt P23836) | 14.7
PhoP, residues 12 14 15 18 19 NFFVT (Escherichia coli, UniProt P23836) | 8.96

Study 4
Target: CCNE2, cyclin fold, Cln2 fusion (human)
Method: yeast growth competition, sequencing
Medium: yeast
Setting: strong parent motif
Reference: not given
Reading: higher = stronger binding
Starting sequence: SCAPER docking peptide (human); SNARRSLNFGGST; partner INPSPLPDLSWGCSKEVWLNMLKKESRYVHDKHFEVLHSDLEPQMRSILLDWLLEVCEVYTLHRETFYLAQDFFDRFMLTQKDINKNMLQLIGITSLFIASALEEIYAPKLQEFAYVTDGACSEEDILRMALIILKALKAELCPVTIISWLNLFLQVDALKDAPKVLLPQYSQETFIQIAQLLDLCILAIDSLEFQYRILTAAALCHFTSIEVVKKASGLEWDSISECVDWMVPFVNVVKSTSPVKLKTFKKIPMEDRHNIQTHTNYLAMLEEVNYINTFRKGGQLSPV
Change | normalised enrichment score
R4S | -0.325
F9V | 0.162
G10I | 0.457
R4E | -0.552
R4M | -0.256
A3G | 0.943
N2Q | 1.18
R5I | 0.485
A3W | 0.299
S1V | 0.79
G11M | 1.19
S6E | 0.812
N8E | 0.694
G10L | 0.88
N2R | 1.68
T13N | 1.91
R5Y | 0.192

Study 5
Target: Ras GTPase-activating protein-binding protein 1, full length (G3BP1, Homo sapiens, UniProt Q13283)
UniProt Q13283, sequence (whole entry, looked up): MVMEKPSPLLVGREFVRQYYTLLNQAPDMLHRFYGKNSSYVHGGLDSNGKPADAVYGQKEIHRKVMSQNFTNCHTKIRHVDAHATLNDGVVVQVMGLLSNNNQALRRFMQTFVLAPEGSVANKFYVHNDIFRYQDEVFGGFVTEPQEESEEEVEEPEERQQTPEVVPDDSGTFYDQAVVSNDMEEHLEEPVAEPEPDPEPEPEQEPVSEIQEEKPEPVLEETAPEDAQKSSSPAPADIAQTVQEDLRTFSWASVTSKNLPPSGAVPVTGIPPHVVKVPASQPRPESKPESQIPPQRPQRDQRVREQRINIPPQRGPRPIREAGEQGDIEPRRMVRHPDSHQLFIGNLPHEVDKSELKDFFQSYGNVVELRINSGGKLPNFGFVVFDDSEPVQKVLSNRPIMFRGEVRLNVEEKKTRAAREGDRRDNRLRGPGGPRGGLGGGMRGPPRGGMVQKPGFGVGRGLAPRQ
Method: RNA Bind-n-Seq
Molecule type: RNA
Medium: in vitro
Tested at: 200 nM
Setting: whole 134-nt RNA, ends assumed
Added: 150 mM LiCl
Reference: input library
Reading: higher = stronger binding
Library: 7-deaza-guanosine replaces G
Shared flanks, not repeated: GGGAGUUCUACAGUCCGACGAUC … UGGAAUUCUCGGGUGUCAAGG
Strand | log2 enrichment
CCUGUGCUACACAUCGUAUGUACCGAAUCGGGGCCCCCGGGGCCCCCGGGGCCCCCGGGGAAAGUAUUAUGUUACGCCGUUCGGAUCUGC | -1.07
GCAGGAAGUAAAAACAAAUGGAAAUGCUUCGGAUAGUGGCAGGGGUGGGGGUUGCUAAGGAAAGGGUGGGAUGGGAGUGGGGAAAGAGUU | -0.352
AAGUCCUGUGCUACACAUCGUAUGUACCGAAUCGGGUUUUGGUUUUGGGUUUUGGGGAAAGUAUUAUGUUACGCCGUUCGGAUCUGCACU | 0.332
GUCCUGUGCUACACAUCGUAUGUACCGAAUCGGGUGGGUUUUUUUGGGAAAAAAAGGGAAAGUAUUAUGUUACGCCGUUCGGAUCUGCAC | -0.31
UAACUUUAGAGAAGGAUCUGAUGGAUAUGGCAGUGGACGUGGAUUUGGGGAUGGCUAUAAUGGGUAUGGAGGAGGACCUGGAGGUGGCAA | -0.25
GGAGUGCCGUGAGCAGGCCGCGGGAACGUCGCCGUCACCUUGUCUCGGGGCCUCGGCGCUGCUUCCCGCCAAAACACGUUUACCGCGCGC | -1.36
ACCAUGCAGGUGGGCAUCUUUGGGAAGGGGGGCAAGGGGGGGAUAGGGAGGGGGGUAACACUUUGGGAACAGGUGGUCCCAGGUCGUUUC | -0.125
AAGUCCUGUGCUACACAUCGUAUGUACCGAAUCGGGAAAAAGGGAAAAAGGGUGGGAAAGUAUUAUGUUACGCCGUUCGGAUCUGCACUU | -0.331

Some of these lines once more (study 1):
Strand | E-score
CACGCGGC | 0.478
CCATGAGA | 0.277
CGCACACC | 0.306
CACATGGA | 0.476
ATGTGGCC | 0.394
GCACGAGA | 0.331
CAACGAGG | 0.341
CCACGTTC | 0.362
CACATGCG | 0.468
GCGCGGCC | 0.252
GCATGTAC | 0.387
